Measured values from different studies.
± marks the error that the study gave.

Under “inhibition zone diameter”, `CCOC(=O)C1=C(C)NC2=C(C(=O)CC(C)(C)C2)C1c1ccc(OCC(=O)NN=Cc2cccc(C=O)c2)cc1OCC(=O)NN=Cc1cccc(C=O)c1` (stereo not drawn) is recorded as 2.6 ± 0.3 mm (Proteus vulgaris; FMC II; concentration not given, 24 h).
`COc1cc([C@@H]2c3cc4c(cc3[C@@H](OC(C)C)[C@H]3COC(=O)[C@H]23)OCO4)cc(OC)c1OC` gave an EC50 of > 100 µM (Leishmania infantum; promastigote, iRFP).
For `O=C(CCN(CCC(=O)N[C@@H](Cc1c[nH]c2ccccc12)C(=O)O)C(=O)CCN(CCC(=O)N(CCC(=O)N[C@@H](Cc1c[nH]c2ccccc12)C(=O)O)CCC(=O)N[C@@H](Cc1c[nH]c2ccccc12)C(=O)O)C(=O)CCOCC(COCCC(=O)N(CCC(=O)N(CCC(=O)N[C@@H](Cc1c[nH]c2ccccc12)C(=O)O)CCC(=O)N[C@@H](Cc1c[nH]c2ccccc12)C(=O)O)CCC(=O)N(CCC(=O)N[C@@H](Cc1c[nH]c2ccccc12)C(=O)O)CCC(=O)N[C@@H](Cc1c[nH]c2ccccc12)C(=O)O)(COCCC(=O)N(CCC(=O)N(CCC(=O)N[C@@H](Cc1c[nH]c2ccccc12)C(=O)O)CCC(=O)N[C@@H](Cc1c[nH]c2ccccc12)C(=O)O)CCC(=O)N(CCC(=O)N[C@@H](Cc1c[nH]c2ccccc12)C(=O)O)CCC(=O)N[C@@H](Cc1c[nH]c2ccccc12)C(=O)O)COCCC(=O)N(CCC(=O)N(CCC(=O)N[C@@H](Cc1c[nH]c2ccccc12)C(=O)O)CCC(=O)N[C@@H](Cc1c[nH]c2ccccc12)C(=O)O)CCC(=O)N(CCC(=O)N[C@@H](Cc1c[nH]c2ccccc12)C(=O)O)CCC(=O)N[C@@H](Cc1c[nH]c2ccccc12)C(=O)O)N[C@@H](Cc1c[nH]c2ccccc12)C(=O)O`, the EC50 was 2.7 ± 0.19 µM (human adenovirus 2; viral replication; HEL).
With `O=[N+]([O-])c1cc(CN2CCN(c3ccc(Cl)cc3)CC2)ccc1Cl` the IC50 was > 200 µM (Saccharomyces cerevisiae; cell growth, doubling time; wild type).
For `CC(C)[C@H](NC(=O)N[C@@H](CCCCN)C(=O)N[C@@H](CNC(=O)CCCCCCCCCCS)C(=O)NCCCNC(C[C@H]1O[C@@H](n2ccc(=O)[nH]c2=O)[C@H](O)[C@@H]1O)C(=O)O)C(=O)O` (stereo partly drawn), the IC50 was > 100 µg/mL (Pseudomonas aeruginosa; growth; PAO1).
With `CN1CCc2cc3c(c4c2C1Cc1ccccc1-4)OCO3` (stereo not drawn) the IC50 was 1 to 10 µM (Schistosoma mansoni; 5-HT evoked movement, antagonist; adult worms; 1 h, together with: serotonin 200 µM).
With `COc1cc([C@@H]2c3cc4c(cc3[C@@H](C=C(C)C)[C@H]3COC(=O)[C@H]23)OCO4)cc(OC)c1OC` the selectivity index was 0.2 (Leishmania; mouse splenocytes; reference: CC50 over amastigote EC50).
The IC50 of `O=[N+]([O-])c1cc(CN2CCN(c3ccccc3F)CC2)ccc1Cl` is reported as 8.1 ± 0.8 µM (Saccharomyces cerevisiae; cell growth, doubling time; SEC14 -136 allele; Sec14 reduced ~7-fold).
The selectivity index of `COC(=O)[C@@H]1C(c2nc3ccccc3s2)=Cc2cc3c(cc2[C@H]1c1cc(OC)c(OC)c(OC)c1)OCO3` is reported as 0.5 (Leishmania infantum; Alamar Blue; HepG2; reference: CC50 HepG2 over EC50 amastigotes).
`O=S(=O)(c1ccc(Cl)cc1)N1CCN(c2ccc(F)cc2)CC1` gave an IC50 of > 200 µM (Saccharomyces cerevisiae; cell growth, doubling time; wild type).
`COC(=O)[C@@H]1C(c2nc3cc(Cl)ccc3o2)=Cc2cc3c(cc2[C@H]1c1cc(OC)c(OC)c(OC)c1)OCO3` gave a selectivity index of 3.9 (Leishmania infantum; Alamar Blue; HepG2; reference: CC50 HepG2 over EC50 amastigotes).
The EC50 of `COc1ccc2c(c1)C1CC1(C(=O)N1C3CNCC1C3)Cn1c-2c(C2CCCCC2)c2ccc(C(=O)NS(=O)(=O)N(C)C)cc21` (stereo not drawn) is reported as 0.08 µM (hepatitis C virus; viral replication, FRET; Huh-7, genotype 1b Con1 replicon).

Some of these lines once more:
For `CC(C)[C@H](NC(=O)N[C@@H](CCCCN)C(=O)N[C@@H](CNC(=O)CCCCCCCCCCS)C(=O)NCCCNC(C[C@H]1O[C@@H](n2ccc(=O)[nH]c2=O)[C@H](O)[C@@H]1O)C(=O)O)C(=O)O` (stereo partly drawn), the IC50 was > 100 µg/mL (Pseudomonas aeruginosa; growth; PAO1).
